Results collected from several papers.
Every numbered part comes from another study and shows a few of its results, in no order. Substitutions count along the parent as printed.

Study 1 — method: protein-binding microarray; molecule type: double-stranded DNA, one strand shown; sample: in vitro; tested at: 250 nM; notes: 60-bp whole probe; together with: salmon DNA 0.4 mg/ml; relative to: random background probes; direction: higher = stronger binding; measurement: log fluorescence; all sequences stand within: GCCTAGCAC … GTCTTGATTCGCTTGACGCTGCTG
Target: Interferon regulatory factor 7, full length, phosphomimetic (IRF7, Homo sapiens, UniProt Q92985, residues 1-503, S101K/S471D/S472D/S475D/S476D/S477D/S483D/S484D/S487D)
Target sequence (chain): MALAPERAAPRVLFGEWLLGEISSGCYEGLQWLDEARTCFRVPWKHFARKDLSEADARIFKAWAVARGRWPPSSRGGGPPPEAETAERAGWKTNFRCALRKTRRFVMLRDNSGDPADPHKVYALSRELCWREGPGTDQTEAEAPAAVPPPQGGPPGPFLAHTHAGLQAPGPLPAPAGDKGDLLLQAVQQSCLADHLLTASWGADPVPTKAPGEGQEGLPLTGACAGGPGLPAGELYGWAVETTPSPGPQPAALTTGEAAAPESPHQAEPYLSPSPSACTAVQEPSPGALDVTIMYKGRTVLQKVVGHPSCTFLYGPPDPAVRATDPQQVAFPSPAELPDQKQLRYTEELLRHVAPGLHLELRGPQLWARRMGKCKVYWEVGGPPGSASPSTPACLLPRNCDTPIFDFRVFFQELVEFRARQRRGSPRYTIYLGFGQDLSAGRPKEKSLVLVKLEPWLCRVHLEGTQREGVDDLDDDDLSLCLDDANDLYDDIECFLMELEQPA
TTAGGTTTCCTACTGCGTTAGTGCTAG: 1.33 z-score
GTCGGTCTCCTACTGCTGACGTGCTAG: 0.218 z-score
GACTATTTCAGTCTCGAGACGTGCTAG: 1.28 z-score
TTAGGTATCGGGTTTCGGTCAGTGCTA: 3.82 z-score
GACGGTCTTCTACTGCTGACGTGCTAG: -0.441 z-score
GACGGACTGGGGAGTGGGGACGTGCTA: -0.736 z-score
TTAGAACTGAGTCTCAATTAGTGCTAG: 0.125 z-score
GACGAACTGAGTATCGAAACGTGCTAG: 0.686 z-score
TTAGATATCAATCTCGATTAGTGCTAG: 0.312 z-score
GACGAACTGAGTTTCGAGTCGTGCTAG: 8 z-score
TCATGTTTCTGTGTCACACTGTGCTAG: 1.39 z-score
GACGGTTTCCTTATCGTGACGTGCTAG: 2.81 z-score
TCAATTCCTGATCTCTGACTGTGCTAG: 0.93 z-score
GACGGACTGGGTATCGGGGCGTGCTAG: -0.276 z-score
TCATGTTGCTGTTTGAGACTGTGCTAG: 0.749 z-score
GACGGTCTCCTTCCCCTGACGTGCTAG: 0.153 z-score
TCATCTTTCTGTTTTCTACTGTGCTAG: 1.77 z-score

Study 2 — target: CCNA2, cyclin fold, Cln2 fusion (human); method: yeast growth competition, sequencing; sample: yeast; notes: strong parent motif; relative to: not given; direction: higher = stronger binding; measurement: normalised enrichment score
Parent: BRCA2 docking peptide (human); PSIKRNLLNEFDR; partner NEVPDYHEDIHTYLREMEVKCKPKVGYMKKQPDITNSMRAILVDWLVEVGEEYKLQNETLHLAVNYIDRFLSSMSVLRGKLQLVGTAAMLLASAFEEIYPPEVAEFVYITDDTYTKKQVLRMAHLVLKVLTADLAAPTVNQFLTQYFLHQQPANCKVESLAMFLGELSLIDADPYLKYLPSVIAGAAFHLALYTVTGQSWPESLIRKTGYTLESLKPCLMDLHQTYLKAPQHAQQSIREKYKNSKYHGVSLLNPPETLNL
D12C: 4.84
E10L: 2.7
E10Q: 2.38
D12Y: 4.44
P1Q: 5.78
N9K: 5.77
P1C: 5.63
S2R: 5.22
S2T: 5.24
P1N: 5.59
E10W: 2.29
N9W: 6.19
L7W: 0.84
S2C: 4.36
N9T: 4.98
K4T: 1.82
L7S: -0.00603
F11E: 0.143
R5A L7A: -0.301
N9H: 5.5
L7K: 0.583
N9G: 5.3
L7R: 0.474
F11T: 1.22
S2L: 5.83

Study 3 — method: protein binding microarray; molecule type: double-stranded DNA, one strand shown; sample: in vitro; tested at: not given; relative to: not given; direction: higher = stronger binding; measurement: E-score
Target: Histone acetyltransferase KAT6A, both winged helices, GST fusion (KAT6A, Homo sapiens, UniProt Q92794, residues 1-181)
Notes: 8-mer, flanks averaged, mean of 2 arrays, mostly near background
Residues (chain): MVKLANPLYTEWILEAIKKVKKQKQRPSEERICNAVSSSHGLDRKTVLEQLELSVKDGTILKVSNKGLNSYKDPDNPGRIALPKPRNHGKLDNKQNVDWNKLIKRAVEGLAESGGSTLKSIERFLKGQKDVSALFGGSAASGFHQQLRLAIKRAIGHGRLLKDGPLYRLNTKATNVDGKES
AGGGAACG: -0.101
CCACGGCC: 0.132
AAGTGAAG: -0.0856
TCCGCTCA: 0.0506
AGGTCCAC: -0.145
AGGATAGA: -0.15
GGGTCAAA: -0.0145
TGTAGACA: -0.195
TTGGGAAA: -0.119
TAGTCCCA: -0.246
GAGGTACC: -0.0171
CCTAGCTC: -0.166
CCGATGAC: 0.106
ATAGCCTG: -0.182
CGGTTCCC: 0.137
CAAAATAC: -0.0161
CCGGTAGA: 0.241
AAGGGGCA: -0.176
AATCGAAT: -0.0189
GCCCCAGA: -0.0706
CGCACCAG: 0.158
AGCCTGCA: -0.186
CATTAGCA: -0.103
ATGTCCTA: -0.0764
CTGTCTGC: -0.0545

Study 4 — method: DHFR PCA, deep sequencing; sample: yeast; together with: (+)-ABA 1.4 µM; relative to: wild-type fitted maximum; direction: higher = stronger binding; measurement: relative binding score
Target: ABI1, truncated, D143A, DHFR fusion (Arabidopsis thaliana)
Notes: methotrexate growth selection, single substitutions
Parent: PYL1, truncated, DHFR fusion (Arabidopsis thaliana); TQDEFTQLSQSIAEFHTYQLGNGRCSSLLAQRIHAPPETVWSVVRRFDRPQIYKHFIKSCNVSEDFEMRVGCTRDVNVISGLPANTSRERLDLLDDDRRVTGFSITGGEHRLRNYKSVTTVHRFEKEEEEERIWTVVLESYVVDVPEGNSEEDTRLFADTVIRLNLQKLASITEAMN; partner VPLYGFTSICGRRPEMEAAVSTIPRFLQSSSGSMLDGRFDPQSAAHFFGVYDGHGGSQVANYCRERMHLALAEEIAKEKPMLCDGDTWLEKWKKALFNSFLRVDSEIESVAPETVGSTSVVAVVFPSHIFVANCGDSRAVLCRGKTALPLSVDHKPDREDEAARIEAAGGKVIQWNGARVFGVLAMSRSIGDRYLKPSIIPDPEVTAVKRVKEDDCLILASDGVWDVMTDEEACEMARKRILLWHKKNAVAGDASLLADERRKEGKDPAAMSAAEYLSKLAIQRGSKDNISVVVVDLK
S117L: 5.83%
G81P: 27.6%
R163L: -0.832%
T120C: -2.55%
A84Y: 82.8%
R113S: 45.9%
L138R: -0.688%
V40M: -1.93%
S87M: 6.4%
D153W: 0.778%

Study 5 — method: RNA Bind-n-Seq; molecule type: RNA; sample: in vitro; tested at: 1 µM; notes: whole 134-nt RNA, ends assumed; together with: 150 mM KCl; relative to: input library; direction: higher = stronger binding; measurement: log2 enrichment
Target: Ras GTPase-activating protein-binding protein 1, C-terminal RGG region (G3BP1, Homo sapiens, UniProt Q13283)
UniProt Q13283, sequence (whole entry, looked up): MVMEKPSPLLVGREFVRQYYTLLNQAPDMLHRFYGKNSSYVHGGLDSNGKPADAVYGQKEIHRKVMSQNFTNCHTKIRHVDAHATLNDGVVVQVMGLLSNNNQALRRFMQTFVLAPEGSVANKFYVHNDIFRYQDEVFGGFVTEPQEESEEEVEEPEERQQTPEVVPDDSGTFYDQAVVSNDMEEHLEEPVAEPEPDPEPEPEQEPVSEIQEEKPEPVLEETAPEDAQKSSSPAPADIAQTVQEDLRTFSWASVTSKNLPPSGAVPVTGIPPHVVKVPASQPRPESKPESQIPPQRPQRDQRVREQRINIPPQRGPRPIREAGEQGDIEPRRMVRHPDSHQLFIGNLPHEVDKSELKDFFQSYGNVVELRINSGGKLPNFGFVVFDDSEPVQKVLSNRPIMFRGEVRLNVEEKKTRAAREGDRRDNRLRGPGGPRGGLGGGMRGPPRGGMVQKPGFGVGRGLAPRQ
All sequences stand within: GGGAGUUCUACAGUCCGACGAUC … UGGAAUUCUCGGGUGUCAAGG
GCAGGAAGUAAAAACAAAUGGAAAUGCUUCGGAUAGUGGCAGGGGUGGGGGUUGCUAAGGAAAGGCUGGGAUGGGAGUGGGUAAAGAGUU: 1.54
GUCCUGUGCUACACAUCGUAUGUACCGAAUCGGGGCCCCGGGCCCCGGGGCCCCGGGGAAAGUAUUAUGUUACGCCGUUCGGAUCUGCAC: -2.51
AAGUCCUGUGCUACACAUCGUAUGUACCGAAUCGGGGCCCGGGGCCCGGGGCCCGGGAAAGUAUUAUGUUACGCCGUUCGGAUCUGCACU: -2.63
UCAAGUCCUGUGCUACACAUCGUAUGUACCGAAUCGGGAAGGGGAAGGGGAAGGGAAAGUAUUAUGUUACGCCGUUCGGAUCUGCACUUC: 2.45
UAACUUUAGAGGAGGAUCUGAUGGAUAUGGCAGUGGACGUGGAUUUGGGGACGGCUAUAAUGGGUAUGGAGGAGGACCUGGAGGUGGCAA: -0.913
AAGUCCUGUGCUACACAUCGUAUGUACCGAAUCGGGUUUUUGGGUGGGAAAAAGGGAAAGUAUUAUGUUACGCCGUUCGGAUCUGCACUU: 0.697
GGGGUGAGCACAGACAGGAUCGCAGGGAGAGGCCGUAUUAAUUAGCCUGGCUCCCCAGGUUCUGGAACAGCUUUUUGUCCUGUACCCAGU: 1.22
CUGUGCUACACAUCGUAUGUACCGAAUCGGGGUUUUUUUGGGGUUUUUUUGGGUUUUUUUGGAAAGUAUUAUGUUACGCCGUUCGGAUCU: -0.979
CCUGUGCUACACAUCGUAUGUACCGAAUCGGGGUUUUUUUGGGGAAAAAAAGGGGAGGGGAAAGUAUUAUGUUACGCCGUUCGGAUCUGC: 0.267
UGGCCCUGGUGGCAUGCGGGGAGGAAGAGGUGGCCUCAUGGAUCGUGGUGGUCCCGGGGGAAUGUUCAGAGGUGGCCGUGGUGGAGACAG: 2.21
ACCAUGCAGGUGGUCAUCUUUGGGAAGUGGGGCAAGGGGGGGAUAGGGAGGGGGGUAACACUUUGGGAACAGGUGGUCCCAGGUCGUUUC: -1.44
UGGAUCAAGAGGAAGUAAAAAGAAUUACCAGUCACAGGCUGACAUUCCCAUUCGGUCUCCCUUUGGUAUUGUGAAAGCAUCCUGGCUACC: -0.817
CAAGUCCUGUGCUACACAUCGUAUGUACCGAAUCGGUUUGGUUUGGUUUUUUUGGAAAGUAUUAUGUUACGCCGUUCGGAUCUGCACUUC: -1.67
ACCAUGCAGGUGGGCAUCUUUGGGAAGUGGGGCAAGGGGGGGAUAGGGAGGGGGGUAACACUUUAGGAACAGGUGGUCCCAGGUCGUUUC: 2.59

Study 6 — method: RNA Bind-n-Seq; molecule type: RNA; sample: in vitro; tested at: 365 nM; relative to: no-protein control; direction: higher = stronger binding; measurement: RBNS enrichment (R)
Target: RNA binding protein fox-1 homolog 2, RRM domain, GST-SBP tag (RBFOX2, Homo sapiens, UniProt O43251-10, residues 100-194)
Notes: natural RNA segment, single round, ends assumed
All sequences stand within: GGGAGUUCUACAGUCCGACGAUC … UGGAAUUCUCGGGUGCCAA
Target sequence (chain): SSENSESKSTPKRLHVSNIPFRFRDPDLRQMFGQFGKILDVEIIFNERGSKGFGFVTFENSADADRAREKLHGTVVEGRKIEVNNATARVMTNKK
GGUUGGGUUUAGAAAGAUCUCAGGAAAAUGAGUUUCUCUUCCCUCAGGGUGGCUGUGAUACAGGUUCCCCAUGUCCUUGCCGUGGGUCAUCCUUGCUGUGGGUCAUCCUU: 0.277
GCUUUUUCAGAUUGUGUGGUAGCCAUAGGACCUGACCCAGUUUGUGCCUCCUGGGAUCCUCAUCCCCAAUCCUGCUCUUACAUAAACCUUUUUCUUGUUUUAGUAAUUUG: 0.307
UCCUUGGGGUUCCCCCUCCCUGUGUGAAAUGUAUUAUCACCAGCAGACACUGCCGGGCCUCCCUCCCGGGGGCACUGCCUGAAGGCGAGUGUGGGCAUAGCAUUAGCUGC: 0.412
GCAGCCUGUCUAGUUUGUAGAUCCCCUUGGUUGCUGGAUAAAGGAUGAUAAUAAAGUGUCUUUCUCUAAACUUGCUUGUCUCCUCUGUUUUAGAAACAUGGGUGGGUAGC: 0.392
GUGUUCCACGAAGGAGGCUCUUCUCAGUCUCUGGGCUCUCCUUUAGAGUUAAGGUCUUAAAAUGUAUUUUGUCCUAAAUAAACUGCGUUUGGUAAACCUUGGCUGGCAAG: 0.32
AGCAUCUGAUAAACGCUGUGGAGACUUAGCCCAACACAAGCUCCAGUGUCUGUAGGAGUCGGCCUCACAAGCUGAUGAAGCAGCUGUACGCCUAGUAGAGCUCGGUGGUG: 0.322
UUAGCUUUCUAACUAGUCAGAUUUCUGCCCAAAGUGCUUAGUCAAUAGUAAUUAAGAUAUAGCUUCAAAAAUGGCUUUGCUUUUGAUUUCUACUCAUAUUCGUAUGGCUC: 0.387
GCAACUAGCUCCCCUGUCGGCCAGCUAAGAGAGCUGGGACAGUGGAGGCUGGCAGAAGCUGAGACGUGACUGUCUAGGAGUAACACUCAUUAAAGCUUUCAUUUUGGCAC: 0.262
UGUUCUAAGUUUUUAAGAAGUUUUAUCUUGUGUAUUUGCAUCAAACAUUUCUUUAUGUGCUAAAUGUUUGCUCUUUAAAAAUGUCUCAGAGUUAGUUACCAGCUUCCUUG: 0.744
CAAACUAGGAACAAAUUCUGAGUGUACCAAUGGCUGCGAAUGCUAUGAUUUUGUGACUUCUGGUCAGUCGGUCAGCAGGCCGGGAUGUAUCAUUACCCUGAGCGAGCUGG: 0.436
CUGCCAGUGUCAGGCAGGGGCCAGCCCCUCAGCCCCUGAGCCAAGGGGGAAAAGAAGAAAAAGUACCUAACACAAGCUUCCUUUUUGCACAACCGGUCCUCUUGGCUGAG: 0.437
AAAACUGAGCUAUGUUUGAACAAAGAUGUCGUGCAAACUGUACUGUGAACAACAGUUGGUUUAAAAUAUGAGGGGCAAGGAGGAGGAUGCAUUUCAAAAGCUUGAUUGAU: 12.2

A few entries again (study 2):
F11T: 1.22
L7R: 0.474
E10W: 2.29
N9H: 5.5
N9G: 5.3
E10Q: 2.38
